Assay results gathered from unrelated publications.
Every numbered part comes from another study and shows a few of its results, in no order. Substitutions count along the parent as printed.

Set 1
Target: Interferon regulatory factor 5, full length, phosphomimetic (IRF5, Homo sapiens, UniProt Q13568-2, residues 1-514, K96S/S451D/S453D/S456D/S462D)
Method: protein-binding microarray
Molecule type: double-stranded DNA, one strand shown
Medium: in vitro
Tested at: 250 nM
Setting: 60-bp whole probe
With: salmon DNA 0.4 mg/ml
Reference: random background probes
Direction: higher = stronger binding
Constant ends, left off below: GCCTAGCAC … GTCTTGATTCGCTTGACGCTGCTG
| Sequence | log fluorescence |
| --- | --- |
| GGCGATTTCAGACTGGAGACGTGCTAG | -0.0666 z-score |
| TTAGGACTGGGGTTTTGGTTAGTGCTA | 0.288 z-score |
| TTAGGACTGGACACAGGGTTAGTGCTA | -0.468 z-score |
| TAAGGTATCGGTTTCGGTTAGTGCTAG | 10.6 z-score |
| GACGATTTCAGGACTGGAGACGTGCTA | 0.335 z-score |
| TTAGATATAGGGACTGGATTAGTGCTA | 0.0544 z-score |
| TTAGATTTCGGGACTCGATTAGTGCTA | 2.83 z-score |
| GACGCACTGAGACTGGAGACGTGCTAG | -0.219 z-score |
| TCATTTCTACTTCTCTTACTGTGCTAG | 1.84 z-score |
| TCACATGTCTGTGTCACACTGTGCTAG | -0.0402 z-score |
| TCAAATTTTAATAACACACTGTGCTAG | 0.55 z-score |
| GCAACATTCACCATGGCTAGGTGCTAG | 0.182 z-score |
| TTAGGTTTCGGTTCCGCTTAGTGCTAG | 10.4 z-score |
| TTAGGACTGCCACTGCTTTAGTGCTAG | -0.513 z-score |
| GACGGACTGCTTCTCCTGACGTGCTAG | -0.14 z-score |
| TTAGGTATCATTATCCTTTAGTGCTAG | 1.69 z-score |
| GACGGTATCGGGACTGAGGACGTGCTA | 1.05 z-score |
| TTTCGTTACTTCCTCAAACAGTGCTAG | 10.5 z-score |
| TTAGGTATCCCTCTCCTTTAGTGCTAG | -0.0665 z-score |
| GACGGACTGGACACTGGGGTCGTGCTA | -0.584 z-score |
| GAGGATCTCAGTATCGAGACGTGCTAG | 1.51 z-score |
| GACGAACTGTGGTTTCGAGACGTGCTA | 2.07 z-score |
| TTAGGACTGGGTCTCGGTTAGTGCTAG | 0.0145 z-score |

Set 2
Target: Histone acetyltransferase KAT6A, winged helix 2, GST fusion (KAT6A, Homo sapiens, UniProt Q92794, residues 85-181)
Method: protein binding microarray
Molecule type: double-stranded DNA, one strand shown
Medium: in vitro
Tested at: not given
Setting: 8-mer, flanks averaged, mean of 2 arrays, mostly near background
Reference: not given
Direction: higher = stronger binding
Target sequence (chain): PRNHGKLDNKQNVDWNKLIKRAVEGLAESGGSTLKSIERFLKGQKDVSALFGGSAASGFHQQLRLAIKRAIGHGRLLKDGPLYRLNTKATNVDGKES
| Sequence | E-score |
| --- | --- |
| AGGTCCTG | 0.0449 |
| CGGGTAAG | -0.0894 |
| ACGCTTGA | 0.113 |
| GACTGCGC | 0.0497 |
| AGTTCGCC | 0.0626 |
| AGACCAAA | 0.00326 |
| CGCCGATC | 0.11 |
| GGTGAACC | 0.188 |
| CCGGAGGC | 0.0748 |
| AAGGTTGT | 0.00315 |
| TGTGGAAA | -0.0804 |
| TGCTTTAA | 0.0363 |
| CGTATTAG | 0.0486 |
| AGGAAAAT | 0.0177 |
| CTATACGC | 0.03 |
| CCATTAAG | -0.0775 |
| AAGGTTCC | 0.028 |
| AGTTGCAA | -0.12 |
| CAAGCCCA | -0.172 |
| CGTTCGAC | -0.0336 |
| AAGCCGAG | 0.015 |
| GTCCCCAC | -0.114 |
| CCTCTGTA | -0.0852 |
| AAGTCGTG | -0.0748 |
| AAGCAAGG | 0.109 |

Set 3
Target: Phosphate system positive regulatory protein PHO4, full length, GST-tagged (PHO4, Saccharomyces cerevisiae, UniProt P07270, residues 1-312)
Method: competition protein-binding microarray
Molecule type: double-stranded DNA, one strand shown
Medium: in vitro
Tested at: 2 µM
Setting: whole 60-bp probe, lowest competitor level
With: Cbf1 competitor, 0.05 µM
Direction: higher = stronger binding
Constant ends, left off below: … GTCTTGATTCGCTTGACGCTGCTG
Target sequence (chain): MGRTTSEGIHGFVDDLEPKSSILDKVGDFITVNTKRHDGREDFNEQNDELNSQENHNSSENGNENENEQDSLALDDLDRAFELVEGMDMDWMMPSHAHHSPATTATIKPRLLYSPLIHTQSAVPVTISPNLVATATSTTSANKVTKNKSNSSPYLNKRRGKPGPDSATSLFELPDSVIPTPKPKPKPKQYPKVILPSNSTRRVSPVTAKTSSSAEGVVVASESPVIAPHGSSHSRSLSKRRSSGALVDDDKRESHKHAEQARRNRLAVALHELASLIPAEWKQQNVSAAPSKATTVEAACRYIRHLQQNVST
| Sequence | fluorescence intensity [a.u.] |
| --- | --- |
| AATTGGCGTAATCCAGCCGTGATGGCGATGACCAGG | 3350 |
| ACTGGGCGCAACAAACACCTGATGTAACTCCTACCC | 4660 |
| CTTTCCCGATCTTGCTGGGTGGGTGTAGCACATTTG | 4640 |
| TGTCCCAATTCCCAGCTCGTGGAACCTGGTGTTTTA | 7800 |
| GTCTTGTCTCATTTTCACGTGGCGTTCCCCACTTCA | 12100 |
| TTCCATTTGAACTGTCACATGACGAAACAGATGAAC | 8140 |
| CTTTCCCGATCTTGTCACTCCACTTTAGCACATTTG | 4090 |
| CTTTCCCGATCTTGTCACCTAACTTTAGCACATTTG | 4270 |
| CTTTCCCGATCTTGCTACGTGGGTGTAGCACATTTG | 7240 |
| CCGATTTAAATGTCCCACGTAAACTTTTCGCCAATT | 5640 |
| CGTCCTAGTGATTGGAAGGTGGGTGCCATGAGGAAG | 6840 |
| TGCGCAACAACTTCCCACGTGTTTTTATGTCTAGAA | 18100 |
| CTTTCTCCCATTCCGCACGTGTCTGCACAAGGCTGG | 19600 |
| AAAGCGGTAATTTTTCACGTGTTATCAAATATCTAT | 15100 |
| GATGAGTATACTTGGTACGTGCCTACGCAGCCAATA | 7510 |
| GCAGCTCTTTTATTTCACGTGTTCCGGTTTCCCTCT | 14000 |
| CGTCCTAGTGATTTTCACGTGGGCTCCATGAGGAAG | 13900 |
| AGCTCCTGCACTTTGCACGTGGCCGAGCCATCGCCC | 18100 |
| CGTCCTAGTGATTGGGTAGTGGGTGCCATGAGGAAG | 7330 |
| CGGGGTTAAGTTTGAGGCGTGGGTGGCTTGCAGCAG | 7800 |
| ACTCTGCAATTCTATCAGTAGGTGGTGCAACCGCGT | 8260 |
| CCCTGCCGTCCTCAACACGTTGCACCATTTGATGTT | 12100 |
| TACTGTACCAATCACCACGTTTTGACTATGTGGACT | 14200 |
| CCGCAGTGCGTAGTTGACGTGGGTAGAAAGCTAGTG | 5320 |
| CTTTCCCGATCTTGCGTCGTGGGTGTAGCACATTTG | 8020 |

Set 4
Target: ABI1, truncated, D143A, DHFR fusion (Arabidopsis thaliana)
Method: DHFR PCA, deep sequencing
Medium: yeast
Setting: methotrexate growth selection, single substitutions
With: (+)-ABA 58 µM
Reference: wild-type fitted maximum
Direction: higher = stronger binding
Starting sequence: PYL1, truncated, DHFR fusion (Arabidopsis thaliana); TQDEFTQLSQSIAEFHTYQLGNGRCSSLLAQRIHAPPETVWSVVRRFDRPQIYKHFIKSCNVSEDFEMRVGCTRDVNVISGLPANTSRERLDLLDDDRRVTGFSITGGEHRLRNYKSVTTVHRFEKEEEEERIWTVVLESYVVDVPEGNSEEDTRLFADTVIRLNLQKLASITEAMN; partner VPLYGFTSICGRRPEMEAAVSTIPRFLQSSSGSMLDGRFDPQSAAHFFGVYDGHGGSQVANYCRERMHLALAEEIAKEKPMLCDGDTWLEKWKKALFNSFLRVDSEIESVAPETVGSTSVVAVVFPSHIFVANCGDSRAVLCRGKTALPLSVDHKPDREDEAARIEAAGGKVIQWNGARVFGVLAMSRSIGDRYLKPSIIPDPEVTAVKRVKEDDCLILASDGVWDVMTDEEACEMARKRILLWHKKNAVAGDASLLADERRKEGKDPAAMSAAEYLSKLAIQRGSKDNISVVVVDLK
| Substitution | relative binding score |
| --- | --- |
| E109G | 74.7% |
| F56N | -7.57% |
| D48L | -8.09% |
| V136I | 104% |
| S150I | 45.6% |
| S104F | 13.8% |
| D97Y | 75.4% |
| N61Y | 82.1% |
| R155I | 81.1% |
| S42Y | 45% |
| L20A | 92.9% |
| F157Y | 64.2% |
| V121Y | -10.7% |
| D95R | 30.4% |

Set 5
Target: CCNE2, cyclin fold, Cln2 fusion (human)
Method: yeast growth competition, sequencing
Medium: yeast
Setting: weak parent motif
Reference: not given
Direction: higher = stronger binding
Starting sequence: ORC1 docking peptide (human); PRARKRLELGNLG; partner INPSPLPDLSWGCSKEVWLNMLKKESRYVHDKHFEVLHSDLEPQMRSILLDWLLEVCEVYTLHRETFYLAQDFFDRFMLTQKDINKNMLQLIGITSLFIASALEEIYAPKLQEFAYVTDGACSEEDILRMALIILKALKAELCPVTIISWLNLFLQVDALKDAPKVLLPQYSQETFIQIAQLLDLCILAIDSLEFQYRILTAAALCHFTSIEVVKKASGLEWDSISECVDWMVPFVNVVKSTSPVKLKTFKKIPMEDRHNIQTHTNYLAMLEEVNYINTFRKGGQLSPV
| Substitution | normalised enrichment score |
| --- | --- |
| PRARKRLEIGNLG [L9I] | 0.521 |
| PRARKRLELGSLG [N11S] | 0.26 |
| PRARKMLELGNLG [R6M] | 0.653 |
| NRARKRLELGNLG [P1N] | 1.15 |
| PRARKVLELGNLG [R6V] | 1.1 |
| PRARKRLYLGNLG [E8Y] | 0.818 |
| PRARARLELGNLG [K5A] | 0.403 |
| PRARKRLEMGNLG [L9M] | 0.815 |
| PRAAKRLELGNLG [R4A] | 0.167 |
| PRARKRLELGNLP [G13P] | 0.327 |
| PRARKRLELGNLT [G13T] | 0.442 |
| PRARKRLELYNLG [G10Y] | 1.91 |
| PRARKRLELGNLH [G13H] | 0.815 |
| PRATKRLELGNLG [R4T] | 0.405 |
| PRARRRLEFGNLG [K5R L9F] | 5.9 |
| PRARKRLELMNLG [G10M] | 0.933 |
| PRARARAELGNLG [K5A L7A] | 0.254 |
| PRARKRQELGNLG [L7Q] | 0.676 |
| PIARKRLELGNLG [R2I] | 1.65 |
| PRARCRLELGNLG [K5C] | 0.356 |
| PRAYKRLELGNLG [R4Y] | 1.18 |
| PNARKRLELGNLG [R2N] | 0.899 |
| PRCRKRLELGNLG [A3C] | 1.71 |
| PRARKPLELGNLG [R6P] | 0.0175 |
| PRARKRLELNNLG [G10N] | 0.556 |

Mixed results
| Substance | target | test | system | conditions | scale | measurement | result |
| --- | --- | --- | --- | --- | --- | --- | --- |
| PhoQ, residues 284 288 289 292 302 303 QWQEDG | PhoP, residues 12 14 15 18 19 QWHVF (Escherichia coli, UniProt P23836) | Sort-seq, refers to: YFP reporter | E. coli | PhoQ-PhoP variant library, with: 10 µM Mg2+ | reference: high Mg2+ state, higher = stronger signaling | fold induction | 5.58 |

Repeated from above (set 4):
| Substitution | relative binding score |
| --- | --- |
| E109G | 74.7% |
| F56N | -7.57% |
| D48L | -8.09% |
| V136I | 104% |
| S150I | 45.6% |
| S104F | 13.8% |
| D97Y | 75.4% |
| N61Y | 82.1% |
| R155I | 81.1% |
| S42Y | 45% |
| L20A | 92.9% |
| F157Y | 64.2% |
| V121Y | -10.7% |
| D95R | 30.4% |
